# Published values pooled from the literature.
# Lines come from different studies, so protocols differ. ± gives the spread as reported.
# CNR1: Cannabinoid receptor 1 (CNR1, Homo sapiens, UniProt P21554)
# Chain of UniProt P21554 (whole entry, unmodified, looked up): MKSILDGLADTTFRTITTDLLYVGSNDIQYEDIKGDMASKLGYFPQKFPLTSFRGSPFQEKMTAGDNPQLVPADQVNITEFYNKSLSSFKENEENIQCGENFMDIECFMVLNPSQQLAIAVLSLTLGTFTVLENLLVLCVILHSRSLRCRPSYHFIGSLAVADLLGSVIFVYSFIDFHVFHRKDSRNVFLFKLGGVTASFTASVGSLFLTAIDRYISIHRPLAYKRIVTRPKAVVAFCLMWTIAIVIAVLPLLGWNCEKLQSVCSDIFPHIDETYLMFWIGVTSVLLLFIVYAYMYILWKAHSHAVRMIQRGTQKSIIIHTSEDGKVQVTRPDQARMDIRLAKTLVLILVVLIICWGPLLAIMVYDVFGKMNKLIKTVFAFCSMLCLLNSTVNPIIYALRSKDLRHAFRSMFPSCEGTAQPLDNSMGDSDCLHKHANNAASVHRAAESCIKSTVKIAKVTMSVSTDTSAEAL
Compound,target,assay,system,setting,scale,endpoint,value
CC/C(=C(\c1ccccc1)c1ccc(OCCN(C)C)cc1)c1ccccc1,CNR1,refers to: cAMP,CHO-hCB1 cells,10 µM,reference: basal,adenylyl cyclase activity increase,2%
CCC(CC)(NC(=O)c1ccc(C2CC2)c(Cc2ccc(F)cc2)n1)C(=O)NCCOCCOCCNC(=O)c1ccc2c(c1)C(=O)OC21c2ccc(N)c(S(=O)(=O)O)c2Oc2c1ccc(N)c2S(=O)(=O)O,CNR1,binding,CHO membranes,"10 µM, together with: [3H]CP55940",,displacement,36 ± 6%
CCCCC/C=C\C/C=C\C/C=C\Cc1ccccc1CCCC(=O)N[C@H](C)CO,CNR1,"cAMP, agonist",,"10 µM, highest concentration tested",,Emax,92%
C[C@H]1COCCN1c1nc(NCc2cccnc2C(F)(F)F)c2cccnc2n1,CNR1,binding,,CEREP panel,,IC50,> 100 µM
CCCCCc1ccccc1C/C=C\C/C=C\C/C=C\CCCC(=O)OC(CO)CO,CNR1,"cAMP, agonist",,"10 µM, highest concentration tested",,Emax,11%
C=C1CC/C=C(\C)CC[C@@H]2[C@@H]1CC2(C)C,CNR1,"[3H]CP55,940 binding, radioligand displacement",,"31.6 µM, together with: 0.5 mg/mL BSA",,inhibition,< 25%
CN1CCN(c2cc(-c3ccncc3)c(-c3ccc4ccccc4c3)nn2)CC1,CNR1,"antagonist, FLIPR",,10 µM,,inhibition,-3.5%
COC(=O)[C@@H](NC(=O)c1nn(Cc2ccc(F)cc2)c2ccccc12)C(C)(C)C,"Cannabinoid receptor 1, with Gz (CNR1, Homo sapiens, UniProt P21554)","GTP turnover, agonist, refers to: Gz Gα subtype",,,,maximal efficacy,110%
COC(=O)[C@@H](NC(=O)c1nn(Cc2ccc(F)cc2)c2ccccc12)C(C)C,CNR1,"Gαi protein dissociation, agonist",,,,Emax,99.91 ± 0.15%
CCCCC/C=C\[C@H](C)/C=C\C/C=C\Cc1ccccc1CCCC(=O)OC(CO)CO,CNR1,"cAMP, agonist",,"10 µM, highest concentration tested",,Emax,34%
CCCCCCC(C)(C)c1ccc([C@@H]2C[C@H](O)CC[C@H]2CCCO)c(O)c1,CNR1,"β-arrestin-1 recruitment, agonist",,,reference: MDMB-FUBINACA,Emax,< 20%
CCCCCCC(C)(C)c1ccc([C@@H]2C[C@H](O)CC[C@H]2CCCO)c(O)c1,"Cannabinoid receptor 1 (CNR1, Homo sapiens, UniProt P21554, F177A)","Gαi1 engagement, agonist, BRET",,TM2 mutant F177A,reference: wild type receptor,Emax,18 ± 4.7%

# Excerpt of the above:
Compound,target,assay,system,setting,scale,endpoint,value
CCCCC/C=C\C/C=C\C/C=C\Cc1ccccc1CCCC(=O)N[C@H](C)CO,CNR1,"cAMP, agonist",,"10 µM, highest concentration tested",,Emax,92%
COC(=O)[C@@H](NC(=O)c1nn(Cc2ccc(F)cc2)c2ccccc12)C(C)(C)C,"Cannabinoid receptor 1, with Gz (CNR1, Homo sapiens, UniProt P21554)","GTP turnover, agonist, refers to: Gz Gα subtype",,,,maximal efficacy,110%
